Assay results pooled from the literature.
Lines come from different studies, so protocols differ. ± marks the error that the study gave.
DRD2: D(2) dopamine receptor (DRD2, Homo sapiens, UniProt P14416)
Sequence of UniProt P14416 (whole entry, looked up): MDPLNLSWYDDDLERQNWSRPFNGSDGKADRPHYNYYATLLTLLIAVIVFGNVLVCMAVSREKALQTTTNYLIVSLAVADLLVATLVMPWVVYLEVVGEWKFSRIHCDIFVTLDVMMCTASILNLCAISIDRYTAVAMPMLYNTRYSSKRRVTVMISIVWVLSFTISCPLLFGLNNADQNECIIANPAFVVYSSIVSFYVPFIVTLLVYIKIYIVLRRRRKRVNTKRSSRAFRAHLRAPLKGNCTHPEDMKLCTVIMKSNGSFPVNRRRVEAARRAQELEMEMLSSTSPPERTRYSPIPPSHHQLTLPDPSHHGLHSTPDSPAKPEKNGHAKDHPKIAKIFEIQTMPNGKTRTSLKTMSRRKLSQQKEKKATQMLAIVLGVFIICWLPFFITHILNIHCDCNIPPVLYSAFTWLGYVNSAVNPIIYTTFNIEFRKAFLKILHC
TAF1L BD2: Transcription initiation factor TFIID subunit 1-like, BD2 (TAF1L, Homo sapiens, UniProt Q8IZX4)
Sequence of UniProt P08546 (whole entry, looked up): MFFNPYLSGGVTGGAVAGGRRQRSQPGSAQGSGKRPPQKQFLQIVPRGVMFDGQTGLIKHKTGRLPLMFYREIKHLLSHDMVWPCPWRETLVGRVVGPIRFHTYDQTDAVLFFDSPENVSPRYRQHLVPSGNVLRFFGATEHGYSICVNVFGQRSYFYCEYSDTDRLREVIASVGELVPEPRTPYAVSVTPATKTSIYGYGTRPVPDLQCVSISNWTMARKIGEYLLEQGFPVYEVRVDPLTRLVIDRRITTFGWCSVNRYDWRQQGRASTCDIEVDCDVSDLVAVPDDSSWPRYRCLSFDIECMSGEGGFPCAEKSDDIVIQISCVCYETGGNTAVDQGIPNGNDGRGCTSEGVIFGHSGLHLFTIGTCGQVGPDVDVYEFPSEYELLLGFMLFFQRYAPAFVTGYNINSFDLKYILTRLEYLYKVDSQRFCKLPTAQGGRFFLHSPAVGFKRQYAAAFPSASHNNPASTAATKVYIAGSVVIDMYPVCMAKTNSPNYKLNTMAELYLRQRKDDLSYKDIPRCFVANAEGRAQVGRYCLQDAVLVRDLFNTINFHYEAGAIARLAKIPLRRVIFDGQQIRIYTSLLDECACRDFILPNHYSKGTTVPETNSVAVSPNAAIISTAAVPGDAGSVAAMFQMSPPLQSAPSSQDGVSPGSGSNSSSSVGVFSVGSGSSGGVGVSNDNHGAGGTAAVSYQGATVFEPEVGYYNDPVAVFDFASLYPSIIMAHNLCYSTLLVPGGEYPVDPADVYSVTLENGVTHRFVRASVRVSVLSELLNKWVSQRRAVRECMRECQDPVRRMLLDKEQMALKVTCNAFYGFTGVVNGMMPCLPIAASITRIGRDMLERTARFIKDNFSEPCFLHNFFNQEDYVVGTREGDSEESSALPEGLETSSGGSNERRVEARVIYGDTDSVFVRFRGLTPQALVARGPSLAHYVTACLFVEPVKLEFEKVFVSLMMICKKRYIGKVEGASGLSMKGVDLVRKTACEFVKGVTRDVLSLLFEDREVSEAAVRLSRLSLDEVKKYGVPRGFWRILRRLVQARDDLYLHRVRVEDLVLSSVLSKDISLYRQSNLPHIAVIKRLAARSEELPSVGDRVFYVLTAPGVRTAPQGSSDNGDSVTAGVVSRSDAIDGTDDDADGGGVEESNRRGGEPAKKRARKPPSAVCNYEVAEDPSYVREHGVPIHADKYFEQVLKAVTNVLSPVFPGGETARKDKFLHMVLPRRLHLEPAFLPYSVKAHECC
Sequence of UniProt Q16620 (whole entry, looked up): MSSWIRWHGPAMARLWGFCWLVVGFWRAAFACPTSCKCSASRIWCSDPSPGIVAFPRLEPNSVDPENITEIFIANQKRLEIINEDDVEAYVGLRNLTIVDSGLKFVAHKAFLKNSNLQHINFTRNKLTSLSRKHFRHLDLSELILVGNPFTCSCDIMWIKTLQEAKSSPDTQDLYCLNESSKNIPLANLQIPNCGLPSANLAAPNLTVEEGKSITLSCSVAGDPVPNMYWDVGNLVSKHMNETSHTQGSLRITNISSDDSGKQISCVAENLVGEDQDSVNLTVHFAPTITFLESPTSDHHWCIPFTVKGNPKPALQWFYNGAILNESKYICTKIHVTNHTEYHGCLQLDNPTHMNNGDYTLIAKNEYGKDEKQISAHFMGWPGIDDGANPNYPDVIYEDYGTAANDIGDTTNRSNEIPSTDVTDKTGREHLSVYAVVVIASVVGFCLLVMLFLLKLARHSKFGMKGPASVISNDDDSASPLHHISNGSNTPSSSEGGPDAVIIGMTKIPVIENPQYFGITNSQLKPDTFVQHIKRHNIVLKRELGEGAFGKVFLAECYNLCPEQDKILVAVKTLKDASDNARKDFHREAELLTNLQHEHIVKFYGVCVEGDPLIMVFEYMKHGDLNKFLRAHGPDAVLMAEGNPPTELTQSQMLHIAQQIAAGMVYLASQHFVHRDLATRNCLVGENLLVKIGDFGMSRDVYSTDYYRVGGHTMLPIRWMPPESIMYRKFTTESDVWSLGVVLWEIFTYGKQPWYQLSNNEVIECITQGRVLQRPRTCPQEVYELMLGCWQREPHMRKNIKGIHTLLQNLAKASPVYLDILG
Sequence of UniProt P54634 (whole entry, looked up): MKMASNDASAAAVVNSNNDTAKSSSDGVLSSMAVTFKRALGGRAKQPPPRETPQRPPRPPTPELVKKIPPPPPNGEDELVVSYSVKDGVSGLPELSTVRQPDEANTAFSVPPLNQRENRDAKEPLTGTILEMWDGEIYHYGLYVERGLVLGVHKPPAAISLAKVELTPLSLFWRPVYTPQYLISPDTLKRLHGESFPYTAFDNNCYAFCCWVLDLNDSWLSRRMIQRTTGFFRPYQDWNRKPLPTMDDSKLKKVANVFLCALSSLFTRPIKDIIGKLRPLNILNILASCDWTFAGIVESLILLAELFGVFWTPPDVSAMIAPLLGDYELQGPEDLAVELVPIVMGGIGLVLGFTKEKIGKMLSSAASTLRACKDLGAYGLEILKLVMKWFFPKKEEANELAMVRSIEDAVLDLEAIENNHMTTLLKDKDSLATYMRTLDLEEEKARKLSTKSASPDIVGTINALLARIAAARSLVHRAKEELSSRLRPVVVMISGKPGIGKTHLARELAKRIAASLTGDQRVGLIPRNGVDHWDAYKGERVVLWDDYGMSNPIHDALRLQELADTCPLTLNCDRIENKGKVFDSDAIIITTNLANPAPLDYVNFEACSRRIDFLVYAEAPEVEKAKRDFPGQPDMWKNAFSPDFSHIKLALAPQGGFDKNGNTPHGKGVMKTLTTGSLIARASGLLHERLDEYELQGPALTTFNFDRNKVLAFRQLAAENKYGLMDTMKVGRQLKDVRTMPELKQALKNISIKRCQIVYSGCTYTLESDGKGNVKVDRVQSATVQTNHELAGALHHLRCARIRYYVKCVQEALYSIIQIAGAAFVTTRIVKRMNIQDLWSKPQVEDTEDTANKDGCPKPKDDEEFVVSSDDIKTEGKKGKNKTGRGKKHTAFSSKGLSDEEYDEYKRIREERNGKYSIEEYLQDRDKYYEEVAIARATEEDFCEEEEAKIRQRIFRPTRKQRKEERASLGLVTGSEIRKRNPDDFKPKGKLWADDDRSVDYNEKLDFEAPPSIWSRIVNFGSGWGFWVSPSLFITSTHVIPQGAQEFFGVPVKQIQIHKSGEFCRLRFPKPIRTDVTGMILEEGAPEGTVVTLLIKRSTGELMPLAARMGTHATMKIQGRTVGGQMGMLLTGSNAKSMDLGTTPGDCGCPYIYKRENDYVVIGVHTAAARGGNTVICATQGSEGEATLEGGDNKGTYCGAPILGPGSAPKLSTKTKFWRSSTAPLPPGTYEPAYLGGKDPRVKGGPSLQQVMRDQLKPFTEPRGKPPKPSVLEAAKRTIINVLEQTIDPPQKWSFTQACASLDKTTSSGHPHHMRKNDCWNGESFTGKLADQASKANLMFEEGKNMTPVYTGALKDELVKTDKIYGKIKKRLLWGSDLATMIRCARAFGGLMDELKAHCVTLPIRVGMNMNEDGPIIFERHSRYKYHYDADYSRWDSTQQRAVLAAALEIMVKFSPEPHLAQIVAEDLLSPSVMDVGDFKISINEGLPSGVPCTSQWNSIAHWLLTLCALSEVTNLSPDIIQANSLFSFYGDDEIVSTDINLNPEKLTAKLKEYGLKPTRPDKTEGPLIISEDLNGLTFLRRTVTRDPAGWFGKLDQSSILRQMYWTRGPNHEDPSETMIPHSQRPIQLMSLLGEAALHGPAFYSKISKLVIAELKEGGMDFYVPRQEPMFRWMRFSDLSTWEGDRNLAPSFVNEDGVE
Sequence of UniProt O43318 (whole entry, looked up): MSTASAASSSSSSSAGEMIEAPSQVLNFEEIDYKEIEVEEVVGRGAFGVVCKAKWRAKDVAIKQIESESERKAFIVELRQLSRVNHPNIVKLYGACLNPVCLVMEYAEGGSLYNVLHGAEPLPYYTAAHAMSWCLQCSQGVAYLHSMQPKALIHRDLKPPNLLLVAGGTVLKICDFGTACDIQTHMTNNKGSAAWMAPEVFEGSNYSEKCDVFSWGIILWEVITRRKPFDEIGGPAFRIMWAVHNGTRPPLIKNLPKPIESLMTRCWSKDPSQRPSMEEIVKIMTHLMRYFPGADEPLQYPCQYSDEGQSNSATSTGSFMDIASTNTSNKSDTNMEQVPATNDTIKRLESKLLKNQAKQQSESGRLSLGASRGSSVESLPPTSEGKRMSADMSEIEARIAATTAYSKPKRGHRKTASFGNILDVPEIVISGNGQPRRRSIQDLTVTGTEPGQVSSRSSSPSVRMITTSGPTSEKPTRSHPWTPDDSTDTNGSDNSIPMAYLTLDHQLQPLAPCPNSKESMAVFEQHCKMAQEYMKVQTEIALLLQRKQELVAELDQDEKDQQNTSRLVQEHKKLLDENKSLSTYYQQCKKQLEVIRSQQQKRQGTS

Compound | tested on | assay | test system | conditions | scale | measurement | value
Cc1[nH]c(C)c(S(=O)(=O)Nc2ccc(NS(C)(=O)=O)c(Cl)c2)c1C(=O)N1CCC(F)(F)C1 | DRD2 |  |  |  |  | IC50 | > 100 µM
CSc1ccccc1C(=O)NCCn1cc(C(=O)NCc2cccc(C)n2)c(=O)c2cc3c(cc21)OC(F)(F)O3 | CYP2C19 (Homo sapiens, UniProt P33261) | enzyme activity, inhibitor | human liver microsomes | 20 min, 30 min NADPH preincubation, together with: mephenytoin 50 µM |  | IC50 | > 100 µM
Cn1cc(-c2ccc(-c3cncc(Cl)c3N3CCC4(CCNC4=O)CC3)cc2)cn1 | COLO 205 | microarray, measured: WWTR1 |  | concentration not given, 6 h, gene set TAZ | reference: untreated cells | fold change in expression | -2.94
Cc1cc2c(cc1N1C(=O)c3cccc4cc(N)cc(c34)C1=O)n(C)c(=O)n2C | TAF1L BD2 | HTRF |  | GST-tagged protein |  | IC50 | 0.167 µM
CC1(C)CN(C(=O)Cn2c(=O)c(C(=O)NCc3ccc(Cl)cc3)cc3nccnc32)C1 | DNA polymerase catalytic subunit (Human cytomegalovirus, UniProt P08546) | enzyme activity, inhibitor |  | at least duplicate |  | IC50 | 2.3 µM
CN1CCN(c2ccc(Nc3ncc4cc(C#N)c(=O)n(C5CCCC5)c4n3)cc2)CC1 | Mitogen-activated protein kinase kinase kinase 7, with TAB1 (MAP3K7, Homo sapiens, UniProt O43318) |  |  |  |  | IC50 | 0.597 µM
CCc1cc2c(cc1N1CCC(N3CCOCC3)CC1)C(C)(C)c1[nH]c3cc(C#N)ccc3c1C2=O | NTRK2 (Homo sapiens, UniProt Q16620) | cell-based |  |  |  | IC50 | 6.18 µM
NC(=O)CCNC(=S)NCCCC[C@H](NS(=O)(=O)c1cccc(F)c1)C(=O)N[C@@H](Cc1c[nH]c2ccccc12)C(=O)NC1CCC1 | SIRT5 (Homo sapiens, UniProt Q9NXA8) | enzyme activity, inhibitor |  |  |  | IC50 | 5.6 ± 0.7 µM
COc1cc(C(F)(F)F)c(Cl)cc1NS(=O)(=O)c1c(C)[nH]c(C)c1C(=O)N1CCC(F)(F)C1 | DRD2 |  |  |  |  | IC50 | > 100 µM
Nc1nsc(C(=O)NCC2CCCCC2)c1C#Cc1ccccc1 | Lysine--tRNA ligase, cytoplasmic (Arabidopsis thaliana, UniProt Q9ZPI1) | enzyme activity, inhibitor |  |  |  | IC50 | 6.31 µM
Cc1cc2c(cc1N1C(=O)c3cccc4c(N5CCN(CCN(C)C)CC5)ccc(c34)C1=O)n(C)c(=O)n2C | TAF1L BD2 | HTRF |  | GST-tagged protein |  | IC50 | 0.0987 µM
Cc1c(C(=O)N(C)C)c(S(=O)(=O)Nc2ccc(C(F)(F)F)c(Cl)c2)c(C)n1C | DRD2 |  |  |  |  | IC50 | > 100 µM
CC(C)C[C@H](NC(=O)[C@H](Cc1cccc2ccccc12)NC(=O)OCc1ccccc1)C(=O)N[C@H](CO)Cn1ccnn1 | Genome polyprotein, protease domain (Lordsdale virus, UniProt P54634) | protease activity, inhibitor, FRET |  | 37 °C |  | IC50 | > 10 µM
Cc1ccc(NS(=O)(=O)c2c(C)[nH]c(C)c2C(=O)NC2CCCC2)cc1Cl | DRD2 |  |  |  |  | IC50 | > 100 µM
CN(C)C(=O)c1cc2cnc(Nc3ccc(-c4cccc5c(=O)cc(N6CCOCC6)oc45)cn3)nc2n1C1CCCC1 | Cyclin-dependent kinase 6, with cyclin D1 (CDK6, Homo sapiens, UniProt Q00534) | inhibitor, HotSpot radiometric kinase |  | together with: 10 µM ATP, cyclin D1 |  | IC50 | 0.27 µM

For quick reference, copied from above:
Compound | tested on | assay | test system | conditions | scale | measurement | value
Nc1nsc(C(=O)NCC2CCCCC2)c1C#Cc1ccccc1 | Lysine--tRNA ligase, cytoplasmic (Arabidopsis thaliana, UniProt Q9ZPI1) | enzyme activity, inhibitor |  |  |  | IC50 | 6.31 µM
Cn1cc(-c2ccc(-c3cncc(Cl)c3N3CCC4(CCNC4=O)CC3)cc2)cn1 | COLO 205 | microarray, measured: WWTR1 |  | concentration not given, 6 h, gene set TAZ | reference: untreated cells | fold change in expression | -2.94
